Measured values pooled from the literature.
Protocols differ between the studies behind these lines. ± gives the spread as reported.
PLEKHA6 PH domain: Pleckstrin homology domain-containing family A member 6, PH domain (PLEKHA6, Homo sapiens, UniProt Q9Y2H5)
UniProt Q9Y2H5, sequence (whole entry, looked up): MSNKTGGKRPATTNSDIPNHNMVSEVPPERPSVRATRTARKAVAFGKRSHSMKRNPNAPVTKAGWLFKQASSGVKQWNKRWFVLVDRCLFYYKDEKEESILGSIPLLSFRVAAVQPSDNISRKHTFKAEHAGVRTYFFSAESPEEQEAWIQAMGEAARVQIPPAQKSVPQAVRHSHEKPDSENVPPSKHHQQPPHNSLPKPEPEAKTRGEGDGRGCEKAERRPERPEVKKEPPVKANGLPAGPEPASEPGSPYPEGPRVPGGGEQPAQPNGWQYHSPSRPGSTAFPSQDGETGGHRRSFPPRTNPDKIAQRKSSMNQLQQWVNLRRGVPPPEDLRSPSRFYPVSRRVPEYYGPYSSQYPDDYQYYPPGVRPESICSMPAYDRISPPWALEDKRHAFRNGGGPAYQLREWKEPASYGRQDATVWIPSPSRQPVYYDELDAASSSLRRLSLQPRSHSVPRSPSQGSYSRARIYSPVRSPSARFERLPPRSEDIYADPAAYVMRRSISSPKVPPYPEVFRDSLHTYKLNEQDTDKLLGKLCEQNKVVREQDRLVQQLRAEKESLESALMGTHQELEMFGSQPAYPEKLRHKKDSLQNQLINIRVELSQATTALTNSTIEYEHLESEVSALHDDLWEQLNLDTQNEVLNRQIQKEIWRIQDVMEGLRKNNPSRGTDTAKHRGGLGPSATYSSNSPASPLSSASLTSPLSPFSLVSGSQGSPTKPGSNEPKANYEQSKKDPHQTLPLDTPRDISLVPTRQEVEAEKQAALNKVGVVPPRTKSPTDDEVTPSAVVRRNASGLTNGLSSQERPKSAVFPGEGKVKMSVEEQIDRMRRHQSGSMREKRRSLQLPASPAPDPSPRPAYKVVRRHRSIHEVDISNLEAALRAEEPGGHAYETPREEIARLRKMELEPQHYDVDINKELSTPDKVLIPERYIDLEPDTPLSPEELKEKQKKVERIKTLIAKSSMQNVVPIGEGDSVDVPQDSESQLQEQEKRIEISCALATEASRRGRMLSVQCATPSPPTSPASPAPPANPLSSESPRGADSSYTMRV
Urea transporter 1: Urea transporter 1 (Homo sapiens, UniProt Q13336)
UniProt Q13336, sequence (whole entry, looked up): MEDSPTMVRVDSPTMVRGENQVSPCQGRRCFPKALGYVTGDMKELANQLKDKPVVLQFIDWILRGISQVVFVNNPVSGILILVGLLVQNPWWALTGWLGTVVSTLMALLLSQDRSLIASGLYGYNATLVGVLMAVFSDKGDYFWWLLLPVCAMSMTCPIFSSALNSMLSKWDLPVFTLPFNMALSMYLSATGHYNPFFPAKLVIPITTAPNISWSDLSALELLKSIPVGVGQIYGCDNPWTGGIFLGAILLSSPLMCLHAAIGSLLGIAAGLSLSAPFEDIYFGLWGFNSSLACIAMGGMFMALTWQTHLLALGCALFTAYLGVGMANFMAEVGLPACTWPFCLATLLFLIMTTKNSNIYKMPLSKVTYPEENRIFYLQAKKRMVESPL
ELAVL1: ELAV-like protein 1 (ELAVL1, Homo sapiens, UniProt Q15717)
UniProt Q15717, sequence (whole entry, looked up): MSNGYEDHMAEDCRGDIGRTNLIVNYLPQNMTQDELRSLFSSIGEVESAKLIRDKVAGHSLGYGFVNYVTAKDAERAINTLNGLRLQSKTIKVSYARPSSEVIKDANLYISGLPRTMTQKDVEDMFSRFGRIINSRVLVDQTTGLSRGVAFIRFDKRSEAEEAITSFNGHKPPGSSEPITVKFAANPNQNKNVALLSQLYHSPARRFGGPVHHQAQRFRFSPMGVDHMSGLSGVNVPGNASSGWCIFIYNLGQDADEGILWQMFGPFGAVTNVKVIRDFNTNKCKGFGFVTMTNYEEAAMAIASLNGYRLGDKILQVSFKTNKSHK
CYP2E1: Cytochrome P450 2E1 (CYP2E1, Homo sapiens, UniProt P05181)
UniProt P05181, sequence (whole entry, looked up): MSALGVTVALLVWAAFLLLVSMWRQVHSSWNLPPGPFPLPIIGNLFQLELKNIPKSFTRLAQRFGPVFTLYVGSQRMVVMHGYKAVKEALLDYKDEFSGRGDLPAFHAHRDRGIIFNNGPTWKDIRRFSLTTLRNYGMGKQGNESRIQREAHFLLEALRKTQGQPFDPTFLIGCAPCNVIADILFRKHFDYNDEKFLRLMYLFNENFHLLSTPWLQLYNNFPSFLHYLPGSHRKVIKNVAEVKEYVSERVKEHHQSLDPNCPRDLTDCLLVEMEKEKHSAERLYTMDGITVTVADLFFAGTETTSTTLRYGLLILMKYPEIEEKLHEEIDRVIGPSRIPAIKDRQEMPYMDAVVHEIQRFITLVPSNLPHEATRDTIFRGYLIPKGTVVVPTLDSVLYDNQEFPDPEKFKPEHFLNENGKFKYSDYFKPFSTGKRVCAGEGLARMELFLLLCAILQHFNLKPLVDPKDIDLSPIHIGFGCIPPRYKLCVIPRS
UniProt P28074, sequence (whole entry, looked up): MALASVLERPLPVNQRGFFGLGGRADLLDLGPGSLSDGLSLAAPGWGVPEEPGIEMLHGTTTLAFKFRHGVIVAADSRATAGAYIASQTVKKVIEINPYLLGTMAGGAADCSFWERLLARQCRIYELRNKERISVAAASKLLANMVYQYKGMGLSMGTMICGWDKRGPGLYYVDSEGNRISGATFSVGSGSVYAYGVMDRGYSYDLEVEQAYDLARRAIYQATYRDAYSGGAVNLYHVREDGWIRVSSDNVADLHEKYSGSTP
UniProt Q96NT5, sequence (whole entry, unmodified, looked up): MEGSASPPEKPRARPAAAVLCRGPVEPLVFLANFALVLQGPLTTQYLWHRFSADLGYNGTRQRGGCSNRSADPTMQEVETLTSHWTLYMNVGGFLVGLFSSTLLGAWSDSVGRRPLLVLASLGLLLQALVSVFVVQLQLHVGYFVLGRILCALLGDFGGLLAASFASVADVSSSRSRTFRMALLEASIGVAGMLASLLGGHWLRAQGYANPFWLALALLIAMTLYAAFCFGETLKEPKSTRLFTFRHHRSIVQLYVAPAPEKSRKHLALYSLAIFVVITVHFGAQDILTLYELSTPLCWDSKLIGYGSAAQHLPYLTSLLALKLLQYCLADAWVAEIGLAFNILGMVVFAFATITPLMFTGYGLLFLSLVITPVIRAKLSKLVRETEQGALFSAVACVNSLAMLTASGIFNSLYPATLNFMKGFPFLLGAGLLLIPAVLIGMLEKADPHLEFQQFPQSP
UniProt P52790, sequence (whole entry, unmodified, looked up): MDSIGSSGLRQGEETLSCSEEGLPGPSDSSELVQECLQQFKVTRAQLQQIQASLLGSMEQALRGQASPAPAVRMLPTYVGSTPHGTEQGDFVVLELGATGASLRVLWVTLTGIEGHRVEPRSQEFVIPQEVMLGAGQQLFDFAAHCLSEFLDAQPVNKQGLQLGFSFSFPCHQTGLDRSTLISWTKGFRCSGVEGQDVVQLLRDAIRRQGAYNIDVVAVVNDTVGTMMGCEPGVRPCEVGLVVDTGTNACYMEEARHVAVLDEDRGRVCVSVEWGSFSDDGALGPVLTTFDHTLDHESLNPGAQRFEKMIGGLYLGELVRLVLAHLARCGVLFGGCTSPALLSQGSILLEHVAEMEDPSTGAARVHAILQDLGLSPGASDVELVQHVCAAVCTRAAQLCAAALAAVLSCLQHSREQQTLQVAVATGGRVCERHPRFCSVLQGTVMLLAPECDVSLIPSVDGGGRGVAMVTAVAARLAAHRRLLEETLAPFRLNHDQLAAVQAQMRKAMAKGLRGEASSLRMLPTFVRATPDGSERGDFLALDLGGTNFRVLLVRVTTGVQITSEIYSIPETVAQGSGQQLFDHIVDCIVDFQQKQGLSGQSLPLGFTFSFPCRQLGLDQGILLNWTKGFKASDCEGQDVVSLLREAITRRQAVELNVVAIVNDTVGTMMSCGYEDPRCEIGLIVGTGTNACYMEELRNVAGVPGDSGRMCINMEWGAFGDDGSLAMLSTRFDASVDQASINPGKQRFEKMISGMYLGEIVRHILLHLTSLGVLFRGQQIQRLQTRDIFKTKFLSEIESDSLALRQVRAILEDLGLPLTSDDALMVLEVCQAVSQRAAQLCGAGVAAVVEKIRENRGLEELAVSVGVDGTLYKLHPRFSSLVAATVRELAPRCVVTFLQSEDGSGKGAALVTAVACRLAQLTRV
UniProt P30542, sequence (whole entry, looked up): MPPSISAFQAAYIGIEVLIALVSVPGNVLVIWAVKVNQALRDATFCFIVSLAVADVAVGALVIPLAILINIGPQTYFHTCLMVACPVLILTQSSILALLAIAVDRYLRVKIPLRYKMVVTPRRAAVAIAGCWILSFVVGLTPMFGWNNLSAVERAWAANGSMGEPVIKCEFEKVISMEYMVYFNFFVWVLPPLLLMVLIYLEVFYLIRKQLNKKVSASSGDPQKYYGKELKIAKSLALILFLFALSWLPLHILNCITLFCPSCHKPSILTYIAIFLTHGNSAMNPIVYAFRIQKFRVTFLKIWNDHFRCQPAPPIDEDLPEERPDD
UniProt Q96C36, sequence (whole entry, unmodified, looked up): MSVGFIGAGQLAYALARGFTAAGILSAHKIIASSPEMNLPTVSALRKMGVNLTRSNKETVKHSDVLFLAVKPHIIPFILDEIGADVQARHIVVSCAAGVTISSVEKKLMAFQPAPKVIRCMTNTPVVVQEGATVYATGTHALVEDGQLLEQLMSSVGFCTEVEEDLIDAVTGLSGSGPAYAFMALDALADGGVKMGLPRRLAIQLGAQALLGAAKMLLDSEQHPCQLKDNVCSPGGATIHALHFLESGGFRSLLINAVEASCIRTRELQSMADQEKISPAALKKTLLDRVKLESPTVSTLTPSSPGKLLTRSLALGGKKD
UniProt P20618, sequence (whole entry, looked up): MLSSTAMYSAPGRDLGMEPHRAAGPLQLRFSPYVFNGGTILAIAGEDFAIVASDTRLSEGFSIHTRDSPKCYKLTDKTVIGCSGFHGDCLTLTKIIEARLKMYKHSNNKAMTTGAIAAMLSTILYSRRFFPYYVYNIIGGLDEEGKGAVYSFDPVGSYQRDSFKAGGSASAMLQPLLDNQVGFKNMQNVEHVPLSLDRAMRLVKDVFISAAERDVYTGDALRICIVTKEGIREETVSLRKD

Compound	target	test	test system	conditions	Ki
CCOc1cccc(C(=O)CC(SCc2cccc(Br)c2)C(=O)O)c1 (stereo not shown)	PLEKHA6 PH domain	PLEKHA6 PI(4,5)P2 binding, fluorescence polarization		added: BODIPY-PI(4,5)P2 tracer	32.5 ± 7.3 µM
CC(=O)C(=O)N(CC(C)C)NC(=O)[C@H](Cc1ccccc1)NC(=O)c1cnccn1	Proteasome component C5/PSMB5 (Homo sapiens, UniProt P20618+P28074)	enzyme activity, inhibitor, kinetic		added: Suc-LLVY-AMC	474 ± 343 µM
CC1CCCC(CC(=O)Nc2nnc(S(N)(=O)=O)s2)C1 (stereo not shown)	Enterococcus faecium γ-carbonic anhydrase	CO2 hydration, inhibitor, stopped-flow kinetics			0.242 µM
O=C(O)[C@@H]1CCCN1	Pyrroline-5-carboxylate reductase 2 (PYCR2, Homo sapiens, UniProt Q96C36)	enzyme activity, competitive inhibitor, item: NADH oxidation		pH 7.5, 37 °C, competitive vs L-P5C, added: L-P5C	145 ± 8 µM
NS(=O)(=O)c1nnc(NC(=O)C(F)CC2CCCCC2)s1 (stereo not shown)	Enterococcus faecium γ-carbonic anhydrase	CO2 hydration, inhibitor, stopped-flow kinetics			0.2 µM
CCOc1ccc(C(=O)CC(SCc2ccc(Cl)cc2)C(=O)O)cc1 (stereo not shown)	PLEKHA6 PH domain	PLEKHA6 PI(4,5)P2 binding, fluorescence polarization		added: BODIPY-PI(4,5)P2 tracer	50.9 ± 3.9 µM
NC(N)=S	Urea transporter 1	urea transport		inhibitor inside only	35000 µM
CCOC(=O)c1cc2cc(NS(=O)(=O)c3ccc(C(C)(C)C)cc3)ccc2[nH]1	ELAVL1	Msi1 binding, inhibitor, fluorescence polarization			> 20 µM
CC1CC(C)CN(c2ccc(C=NNc3nc(-c4ccc(Cl)c(Cl)c4)cs3)cc2)C1 (stereo not shown)	alpha-glucosidase	enzyme activity, inhibitor, Lineweaver-Burk plot		added: p-nitrophenyl-alpha-D-glucopyranoside	11.1 ± 0.98 µM
CCOc1ccc(C(=O)CC(SCc2ccc(F)cc2)C(=O)O)cc1 (stereo not shown)	PLEKHA6 PH domain	PLEKHA6 PI(4,5)P2 binding, fluorescence polarization		added: BODIPY-PI(4,5)P2 tracer	124 ± 11 µM
NC(=O)OP(=O)(O)O	Urea transporter 1	urea transport			no effect
CCOC(=O)c1cc(-c2ccc(OCC)cc2)oc1-c1ccc(Cl)cc1	PLEKHA6 PH domain	PLEKHA6 PI(4,5)P2 binding, fluorescence polarization		added: BODIPY-PI(4,5)P2 tracer	> 100 µM
CCc1oc2ccccc2c1C(=O)c1ccc(O)cc1	CYP2E1	p-nitrophenol hydroxylation, inhibitor	baculosomes	10 min, with additive 100 µM	9.1 µM
CCOc1ccc(C(=O)CC(SCc2ccc(Br)cc2)C(=O)O)cc1 (stereo not shown)	PLEKHA6 PH domain	PLEKHA6 PI(4,5)P2 binding, fluorescence polarization		added: BODIPY-PI(4,5)P2 tracer	147 ± 15 µM
CCc1oc2ccccc2c1C(=O)c1cc(Br)c(O)c(Br)c1	CYP2E1	p-nitrophenol hydroxylation, inhibitor	baculosomes	10 min, with additive 100 µM	15.8 µM
C[C@H]1O[C@H](O[C@H]2[C@H](O)[C@@H](O)[C@@H](O[C@H]3[C@H](O)[C@@H](O)C(O)O[C@@H]3CO)O[C@@H]2CO)[C@H](O)[C@@H](O)[C@@H]1N[C@H]1C=C(CO)[C@@H](O)[C@H](O)[C@H]1O (stereo partly shown)	alpha-glucosidase	enzyme activity, inhibitor, Lineweaver-Burk plot		added: p-nitrophenyl-alpha-D-glucopyranoside	23.5 ± 2.72 µM
CC(=O)NC(N)=S	Urea transporter 1	urea transport inhibition		added: thiourea	20000 µM
COc1ccccc1C(=O)CC(SCc1ccc(Cl)cc1)C(=O)O (stereo not shown)	PLEKHA6 PH domain	PLEKHA6 PI(4,5)P2 binding, fluorescence polarization		added: BODIPY-PI(4,5)P2 tracer	195 ± 2 µM
COC(=O)c1cc2cc(NC(=O)c3ccc(C(C)(C)C)cc3)ccc2s1	ELAVL1	Msi1 binding, inhibitor, fluorescence polarization			> 20 µM
CC1CC(C)CN(c2ccc(C=NNc3nc(-c4ccc(Cl)cc4)cs3)cc2)C1 (stereo not shown)	alpha-glucosidase	enzyme activity, inhibitor, Lineweaver-Burk plot		added: p-nitrophenyl-alpha-D-glucopyranoside	4.61 ± 0.24 µM
Nc1ncnc2c1ncn2[C@@H]1O[C@H](COP(=O)(O)OP(=O)(O)O)[C@@H](O)[C@H]1O	klp-6 (Caenorhabditis elegans, UniProt G5EFQ4, I117M)	microtubule gliding velocity, competitive inhibitor, single-molecule TIRF		pH 7.4, added: Mg-ATP varied, porcine microtubules	271 ± 6 µM
CC1CC(C)CN(c2ccc(C=NNc3nc(-c4ccccc4)cs3)cc2)C1 (stereo not shown)	alpha-glucosidase	enzyme activity, inhibitor, Lineweaver-Burk plot		added: p-nitrophenyl-alpha-D-glucopyranoside	1.76 ± 0.01 µM

Compound	target	test	test system	conditions	Ki
COC(=O)c1cccnc1	Urea transporter 1	urea transport inhibition		added: thiourea	20000 µM
CC(C)(C)CCC(=O)Nc1nnc(S(N)(=O)=O)s1	Enterococcus faecium γ-carbonic anhydrase	CO2 hydration, inhibitor, stopped-flow kinetics			0.376 µM
OC[C@H]1OC(O)[C@H](O)[C@@H](O)[C@@H]1O (stereo partly shown)	Hexokinase-3 (HK3, Homo sapiens, UniProt P52790, E254A)	substrate inhibition		mutant E254A, partial substrate inhibition model, added: ATP 20 mM	3100 ± 400 µM
Nc1nc2c(c(=O)[nH]1)N(C=O)[C@H](CNc1ccc(C(=O)N[C@@H](CCC(=O)O)C(=O)O)cc1)CN2	Proton-coupled folate transporter (Homo sapiens, UniProt Q96NT5, H247A)	[3H]methotrexate uptake, inhibitor, Dixon plot	transfected cells wt-H247A	pH 5.5, added: [3H]methotrexate 0.5 µM	0.13 ± 0.02 µM
C=CCNC(N)=S	Urea transporter 1	urea transport inhibition		added: thiourea	30000 µM
CC1(C)CCCN(CC(=O)Nc2nnc(S(N)(=O)=O)s2)C1	Enterococcus faecium γ-carbonic anhydrase	CO2 hydration, inhibitor, stopped-flow kinetics			0.0875 µM
CNC(N)=O	Urea transporter 1	urea transport inhibition		added: thiourea	100000 µM
C#CCOc1cccc(C(=O)CC(SCc2cccc(Br)c2)C(=O)O)c1 (stereo not shown)	PLEKHA6 PH domain	PLEKHA6 PI(4,5)P2 binding, fluorescence polarization		added: BODIPY-PI(4,5)P2 tracer	36.4 ± 4.5 µM
CCOC(=O)c1cc2cc(NC(=O)c3ccccn3)ccc2[nH]1	ELAVL1	Msi1 binding, inhibitor, fluorescence polarization			> 20 µM
CCc1oc2ccccc2c1C(=O)c1cc(I)c(O)c(I)c1	CYP2E1	p-nitrophenol hydroxylation, inhibitor	baculosomes	10 min, with additive 100 µM	6 µM
CC1CCCC(C(=O)Nc2nnc(S(N)(=O)=O)s2)C1 (stereo not shown)	Enterococcus faecium γ-carbonic anhydrase	CO2 hydration, inhibitor, stopped-flow kinetics			0.416 µM
CC1CC(C)CN(c2ccc(C=NNc3nc(-c4ccc(F)cc4)cs3)cc2)C1 (stereo not shown)	alpha-glucosidase	enzyme activity, inhibitor, Lineweaver-Burk plot		added: p-nitrophenyl-alpha-D-glucopyranoside	3.11 ± 0.18 µM
Cc1ccc(C(=O)Nc2nnc(S(N)(=O)=O)s2)cc1	Enterococcus faecium γ-carbonic anhydrase	CO2 hydration, inhibitor, stopped-flow kinetics			0.178 µM
CC(C)(C)n1nc(-c2ccc(Cl)cc2)c2c(N)ncnc21	SRC (Gallus gallus, UniProt P00523)	enzyme activity, inhibitor			0.05 µM
CN(C)c1ccc(C(=O)Nc2ccc3[nH]c(C(=O)NO)cc3c2)cc1	ELAVL1	Msi1 binding, inhibitor, fluorescence polarization			1.09 µM
COc1cccc(C(=O)CC(SCc2ccc(Cl)cc2)C(=O)O)c1 (stereo not shown)	PLEKHA6 PH domain	PLEKHA6 PI(4,5)P2 binding, fluorescence polarization		added: BODIPY-PI(4,5)P2 tracer	102 ± 11 µM
NS(=O)(=O)c1nnc(NC(=O)CN2CCCC(F)(F)C2)s1	Enterococcus faecium γ-carbonic anhydrase	CO2 hydration, inhibitor, stopped-flow kinetics			0.0357 µM
N#Cc1ccc([C@H]2CCc3cncn32)c(F)c1	CYP2E1	inhibitor, item: chlorzoxazone 6-hydroxylation	pooled human liver microsomes	pH 7.4, added: chlorzoxazone	0.482 ± 0.272 µM
O=C(CN1CCCCC1)Nc1ccc2oc(-c3ccco3)nc2c1	ADORA1 (Homo sapiens, UniProt P30542)	ligand			2.5 µM
Cc1ccc(CC(=O)Nc2nnc(S(N)(=O)=O)s2)cc1	Enterococcus faecium γ-carbonic anhydrase	CO2 hydration, inhibitor, stopped-flow kinetics			0.12 µM
NC(=O)NC(N)=O	Urea transporter 1	urea transport inhibition		added: thiourea	20000 µM

A few entries again:
Compound	target	test	test system	conditions	Ki
CC1CC(C)CN(c2ccc(C=NNc3nc(-c4ccc(Cl)c(Cl)c4)cs3)cc2)C1 (stereo not shown)	alpha-glucosidase	enzyme activity, inhibitor, Lineweaver-Burk plot		added: p-nitrophenyl-alpha-D-glucopyranoside	11.1 ± 0.98 µM
CCOc1ccc(C(=O)CC(SCc2ccc(F)cc2)C(=O)O)cc1 (stereo not shown)	PLEKHA6 PH domain	PLEKHA6 PI(4,5)P2 binding, fluorescence polarization		added: BODIPY-PI(4,5)P2 tracer	124 ± 11 µM
NC(=O)OP(=O)(O)O	Urea transporter 1	urea transport			no effect
CCOC(=O)c1cc(-c2ccc(OCC)cc2)oc1-c1ccc(Cl)cc1	PLEKHA6 PH domain	PLEKHA6 PI(4,5)P2 binding, fluorescence polarization		added: BODIPY-PI(4,5)P2 tracer	> 100 µM
